Results pooled from the literature.
Every numbered part comes from another study and shows a few of its results, in no order.

Block 1
Target: Prothrombin, mature alpha-thrombin (F2, Homo sapiens, UniProt P00734)
Method: aptamer microarray, sandwich
Molecule type: DNA with 2'F-ANA
Medium: in vitro
Concentration: 200 nM
Notes: whole 15-mer aptamer, many near background
Added: Cy3 exosite-II aptamer, 400 nM
Reading: higher = stronger binding
Endpoint: mean fluorescence intensity
Strand: GGTTGGTGTGGTTGG
2'F-ANA at 2 3 4 5 6 7 8 10 11: 54.6 a.u.
2'F-ANA at 2 3 4 5 10 11 12 14 15: 49.3 a.u.
2'F-ANA at 3 7 10 11 13 15: 498 a.u.
2'F-ANA at 1 4 5 6 8 9 10 11 13 15: 63.6 a.u.
2'F-ANA at 3 7 9 10 11 12 14: 453 a.u.
2'F-ANA at 1 2 4 6 10 11 13: 50.9 a.u.
2'F-ANA at 1 2 4 6 7 10 11 12 13 15: 60.6 a.u.
2'F-ANA at 3 7 8 9 14: 650 a.u.
2'F-ANA at 1 2 6 7 8 9 11 13 14 15: 55.5 a.u.
2'F-ANA at 3 4 5 6 7 10 11 13 14 15: 124 a.u.
2'F-ANA at 2 6 8 12 14 15: 177 a.u.
2'F-ANA at 1 2 3 4 5 8 10 13: 46.4 a.u.
2'F-ANA at 1 4 5 8 10 14: 44.1 a.u.
2'F-ANA at 4 7 8 9 14 15: 115 a.u.
2'F-ANA at 3 8 9 12 14: 810 a.u.
2'F-ANA at 6 12 14 15: 227 a.u.
2'F-ANA at 1 6 7 8 10 12 13 14 15: 91.9 a.u.
2'F-ANA at 1 5 6 7 9 10 12 15: 47.6 a.u.
2'F-ANA at 1 2 4 5 6 7 8 10 13 15: 49.2 a.u.

Block 2
Target: RNA binding protein fox-1 homolog 2, RRM domain, GST-SBP tag (RBFOX2, Homo sapiens, UniProt O43251-10, residues 100-194)
Method: RNA Bind-n-Seq
Molecule type: RNA
Medium: in vitro
Concentration: 365 nM
Notes: natural RNA segment, single round, ends assumed
Relative to: no-protein control
Reading: higher = stronger binding
Endpoint: RBNS enrichment (R)
Construct (chain): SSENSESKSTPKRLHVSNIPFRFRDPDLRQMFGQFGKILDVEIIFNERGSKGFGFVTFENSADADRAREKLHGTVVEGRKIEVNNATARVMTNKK
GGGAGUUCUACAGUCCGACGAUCGGAGGCCCCCAUGCUGUCUGAGGGGAGGCCGGCAUAGCCCCUCCUCGACUGUCGCCUGAGCAGCUGAUGAGGUCCCCAGCGCCGCACGCUGUGCUCCAGGGAGAGGAGCCUGGAAUUCUCGGGUGCCAA: 1.12
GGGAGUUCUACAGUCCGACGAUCCUGUCUUUUUAGAGGAAAAGGACUCUGUAGAACAGAUAUUAUAUUUAUACUUUGUUCCUCCUGCCCAACAACUGUCAGUACUGAGAUCUGAAAUUAAAAUGACUUGUUUGUGGAAUUCUCGGGUGCCAA: 0.975
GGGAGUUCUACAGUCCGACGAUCGCUAUCAUGGUUGUGUUAAUCGAUUGUGGGGAUGAAAUGUCAUUGUGUAUGGAAGGCGGGGCUCAUGGCUGAUUGGCAAUAAAAUGGCGGCUGCCGUUGUCAUUGUCUCCUGGAAUUCUCGGGUGCCAA: 0.979
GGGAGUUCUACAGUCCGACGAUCGGGAGUCCCUGCACUGCCAUCUGGCCGGGACGGAGGCGCCUGCCCGGUCUCCAGGCUCCUCUGAGCUUGGGUCAGCUCCUAAUGGAGCAUGGCACCCCAGGGAACCAGAGUGGAAUUCUCGGGUGCCAA: 0.184
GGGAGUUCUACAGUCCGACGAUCGGGUGACUGCUCUGAGAGGCACUUCACUCACAGGCCUGUGGGAUGCUCCAUGGGGCCCUGCUGGCUCCAUGGGGCCCAGGUGCAAAGGGUUUCUGAAAAACAGCAGGAUUUGGAAUUCUCGGGUGCCAA: 0.247
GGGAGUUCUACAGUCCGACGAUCGGAUUUUUAGCUUUGAGGAAAAACCAUGACUUUUAACAAAUUUUUAUGGGUUAUAUGCCUAAACCCUUAUGCCACAUAGUGGUAAAUAAUUAUGAAAAAUGGUCUGUUCAUGGAAUUCUCGGGUGCCAA: 0.941
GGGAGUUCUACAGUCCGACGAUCGAUCCCUUCUGUAGCCUAAAGUAUGGCUGGGAAAUGGACUUGAGAAGAUUGGCUUGAAUUAGAUCAUAAUCAUGUGUGAUCCCAUCAUGAAUUCAUUGGAAUUUGUGUUGUGGAAUUCUCGGGUGCCAA: 0.773
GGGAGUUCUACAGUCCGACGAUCAUGCCAUAAUGCCUGUUGGUAUUUGGCAAAGCACUGACCCGUGUCCUCCGUUGCUCGCACUGGGGUCUCUGGUGUGAACACCCCCGACAGCAGCCCUCCGCCCACUCUGCUGGAAUUCUCGGGUGCCAA: 0.292
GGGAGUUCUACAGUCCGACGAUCCUGGGCCAAAAAAUUUCAGUAGGUCAGUAAUUUAAACUUCACAUCUGGAAAAAAAAUUAUUAAUAAUGUGAAACAAACCAACUUAAAAAGUGAUUCUUGCACAUGAAUUGUGGAAUUCUCGGGUGCCAA: 0.726

Block 3
Target: Sal-like protein 4, full length isoform A (SALL4, Homo sapiens, UniProt Q9UJQ4, residues 1-1053)
Chain of UniProt Q9UJQ4 (whole entry, looked up): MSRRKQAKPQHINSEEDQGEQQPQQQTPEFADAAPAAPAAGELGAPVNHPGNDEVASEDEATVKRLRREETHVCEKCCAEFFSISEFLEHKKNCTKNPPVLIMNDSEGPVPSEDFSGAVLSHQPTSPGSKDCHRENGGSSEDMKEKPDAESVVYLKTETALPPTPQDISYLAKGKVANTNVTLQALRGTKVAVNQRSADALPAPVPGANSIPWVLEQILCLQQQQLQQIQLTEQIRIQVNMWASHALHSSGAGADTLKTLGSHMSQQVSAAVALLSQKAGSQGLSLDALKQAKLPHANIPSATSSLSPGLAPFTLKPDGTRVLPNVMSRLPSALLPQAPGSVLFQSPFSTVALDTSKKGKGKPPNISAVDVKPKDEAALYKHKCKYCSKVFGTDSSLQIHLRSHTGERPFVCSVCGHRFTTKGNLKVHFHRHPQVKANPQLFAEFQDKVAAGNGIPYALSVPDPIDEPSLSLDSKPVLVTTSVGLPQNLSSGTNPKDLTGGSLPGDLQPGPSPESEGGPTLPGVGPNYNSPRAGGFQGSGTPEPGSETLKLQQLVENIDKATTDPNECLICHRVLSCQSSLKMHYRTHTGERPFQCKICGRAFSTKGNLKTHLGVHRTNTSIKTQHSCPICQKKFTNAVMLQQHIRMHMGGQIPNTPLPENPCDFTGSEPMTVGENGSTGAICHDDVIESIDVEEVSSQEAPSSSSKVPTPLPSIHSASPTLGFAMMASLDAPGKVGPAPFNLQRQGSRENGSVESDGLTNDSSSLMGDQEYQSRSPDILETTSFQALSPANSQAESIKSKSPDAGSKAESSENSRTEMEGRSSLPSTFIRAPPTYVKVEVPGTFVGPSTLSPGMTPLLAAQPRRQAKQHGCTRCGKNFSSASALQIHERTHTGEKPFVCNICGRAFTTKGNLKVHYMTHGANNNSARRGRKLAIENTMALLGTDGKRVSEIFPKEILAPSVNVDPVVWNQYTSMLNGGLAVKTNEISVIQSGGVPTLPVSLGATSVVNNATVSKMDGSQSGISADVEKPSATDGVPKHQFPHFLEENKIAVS
Method: universal PBM
Molecule type: double-stranded DNA, one strand shown
Medium: in vitro
Concentration: 600 nM
Notes: 8-mer, flanks averaged, mean of replicates
Reading: higher = stronger binding
Endpoint: E-score
CAACCGCC: -0.288
GGCGCAGA: -0.227
GGGATAAA: 0.148
CCCGTCAA: -0.156
GTGCTCCA: -0.202
CCCAAACA: 0.0619
CCATACGG: -0.0993
AGAGTCAA: 0.0291
GCGCCGTA: -0.243
CGATGGAG: -0.174
CGGATCAG: -0.195
GTGGGCCA: -0.11
AGGGCTCA: -0.191
TCGGGGAA: -0.074
AAATCCTG: 0.0871
AACTCCGA: -0.0805
TGTCCGAA: 0.0731
AGAGAACT: -0.0687
ACAATCCC: 0.0438
AGGACGCC: -0.328
ACGAATCT: 0.0843
CTACGCGA: -0.162
CGTTGTAA: 0.0733
AAATATGC: 0.292
GTACCTAC: -0.137

Block 4
Target: RING finger protein unkempt homolog, zinc fingers 1-6, SBP tag (UNK, Homo sapiens, UniProt Q9C0B0, residues 30-357)
Chain of UniProt Q9C0B0 (30-357, looked up): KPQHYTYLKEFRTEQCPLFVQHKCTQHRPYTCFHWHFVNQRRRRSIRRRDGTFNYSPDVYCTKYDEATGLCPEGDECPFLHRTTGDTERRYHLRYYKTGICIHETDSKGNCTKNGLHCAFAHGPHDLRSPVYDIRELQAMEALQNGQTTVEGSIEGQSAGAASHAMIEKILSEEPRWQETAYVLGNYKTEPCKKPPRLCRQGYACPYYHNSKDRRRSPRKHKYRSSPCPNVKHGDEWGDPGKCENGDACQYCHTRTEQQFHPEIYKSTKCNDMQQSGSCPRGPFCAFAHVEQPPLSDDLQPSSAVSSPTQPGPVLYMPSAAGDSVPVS
Method: RNA Bind-n-Seq
Molecule type: RNA
Medium: in vitro
Concentration: 100 nM
Notes: RNA with constant flanks, vertebrate orthologous sites, ends assumed
Relative to: input RNA pool
Reading: higher = stronger binding
Endpoint: bound/input enrichment
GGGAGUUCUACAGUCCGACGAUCCAGUUUAGAUAUUCUUUUAAUUUUUUUUCUUUUCCCUUAAUCCUUUUUUAUUUUUAAAAAUAGUUCUUUUGUAAUGUGUUCAAAAUGGAAUUGAAAACUGGCACCUCUCUUGCAAACAUCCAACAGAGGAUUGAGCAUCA: 8.31 ratio
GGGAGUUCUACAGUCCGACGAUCUAUUGUACGUAGAGAAAAAAUUUUCCUUGACCCCAUUGUGAAAUUCCCUAGCAAUUUAUUUAGAAUCUUCAUUUUUCUCAUUCAAGCUCACUGUAUUAGUUAUUUUUAGCCCAUAAUUAACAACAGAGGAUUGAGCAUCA: 4.99 ratio
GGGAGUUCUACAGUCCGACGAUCAAAUAUACUUCAUGCCAUGGACUCCGUAUCGCACUGAUACUUUGAUAGAGUAUGCUUCUUUAGAGGACUUCCAAAACGGACGCCAGCAGACGACGUAUAAACUCCCGAAUCGAGUGGACGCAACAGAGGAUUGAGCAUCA: 0.889 ratio
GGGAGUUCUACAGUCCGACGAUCUGGGUUGUUCCUAUUAUUAUCAAGUAGCUGGAAUUGUGAAGGUUGGAGUAGUUAGAUCUUUAGCUUUUAUUCCUUUUUUUUGUAUUACUAUCCAUGUGUAUAAAUUAUUGAUCAUGUUGCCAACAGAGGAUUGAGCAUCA: 2.33 ratio
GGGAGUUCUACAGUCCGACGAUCGAGCACUGCCUGUGUGUGCCCACAGCACUGAAGACAAAGCAGUAAUUCUAUAGUCACAGUAAGAUAGCUUCAGGGCAGCGUCACCAUGGUUCUCUCAUGGGCAGGUUCUGAAAAUGUACCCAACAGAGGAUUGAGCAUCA: 0.287 ratio
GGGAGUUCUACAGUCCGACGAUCGUUGUGACCCAUUUAACAUACACAAAAAAUUAGCGAAAAAAAAUUUGCAUGUAAUUGACUUAGAUGAUGCCACUUUUCUGAGUGCUAAAUUUGGAAGACAGCUUGUACCUGGUUGGAAGCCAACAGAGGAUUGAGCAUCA: 1.6 ratio
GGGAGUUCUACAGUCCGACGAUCCUCGCCGCCCCACCCCUGACCUGGAAGAACUUGAGAGAGUUCGUUUUUGCCACCCGCGUGUGUGUGUGUGGCGUAUGUAUGUGCGUGUGUGUUUUGUAAAAGAUAUCAAGACCUGAUGAACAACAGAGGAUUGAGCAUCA: 0.387 ratio
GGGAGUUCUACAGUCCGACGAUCCCAAAAUUUUAACCAAGAAUCCGAAGGUAGAAAUACAGGGCCAUGGUUAUCUUCCUCACUUAGAAAUAGAUGCACACCUUUGUUCUCUAGAAGGAGGCGAGAGGGAAGAGAUGAAUCUUCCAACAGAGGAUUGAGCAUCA: 0.729 ratio
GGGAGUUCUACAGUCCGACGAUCACAUAUGUAAUCAUUUGAUUAAAAUUGGAUAAGAGAUUACUGUUCAUUUUCCCUUUCAAACACACUUAUCCUAUUUUUAAUCUAUUUUGCAAAACAUCAGUUGUGAAUGGCUGCUUGACACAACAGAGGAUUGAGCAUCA: 0.577 ratio
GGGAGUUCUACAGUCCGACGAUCUUCAUAAUCACGCUAAUCGUAAUCUGGAGACGUGUAACAUUGUGUAGCCUUUUGUAUAAAUAGACAGAUAGAAAUGGUCCGGUUAGUUUCCUUUUUAAUAUGCUUAAAAUAAGCAGGUGGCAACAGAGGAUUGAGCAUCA: 1.79 ratio
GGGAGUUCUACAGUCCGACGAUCGCCUCUAGCAGGCAAUUUCAGGGAGAGAUAGGCUUCAGGGAAUAUAAAUUUAUUUAAUAUUAGUGUUCUUGAAGUAUAAACUUGAUAUAAUUGUUUUGGGAGGGGGACAAUGAUGAUGACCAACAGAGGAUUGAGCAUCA: 1.43 ratio

A few entries again (block 3):
AAATCCTG: 0.0871
AACTCCGA: -0.0805
TGTCCGAA: 0.0731
AGAGAACT: -0.0687
ACAATCCC: 0.0438
AGGACGCC: -0.328
